# Published values pooled from the literature.
# Parts stem from different laboratories: compare values within a part only.

# Block 1 — technique: RNA Bind-n-Seq; form: RNA; matrix: in vitro; tested at: 365 nM; reference: no-protein control; direction: higher = stronger binding
# Target: RNA binding protein fox-1 homolog 2, RRM domain, GST-SBP tag (RBFOX2, Homo sapiens, UniProt O43251-10, residues 100-194)
# Setting: natural RNA segment, single round, ends assumed
# Constant ends, left off below: GGGAGUUCUACAGUCCGACGAUC … UGGAAUUCUCGGGUGCCAA
# Residues (chain): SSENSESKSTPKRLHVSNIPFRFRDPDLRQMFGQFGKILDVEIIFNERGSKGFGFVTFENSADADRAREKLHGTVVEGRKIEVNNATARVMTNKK
Sequence,RBNS enrichment (R)
UUUCUGUUCAGGGAUUAAGACCAGAAUAUCAGUGGAUUUGUUUUCCCCACCAAGUGGCCUCUUAGACUAGUCAUUAACUUAUGAUUAGCUCUAAAGAUUUCAAAUAGUGG,0.367
GUCCCUCUCAAUGGCACUCUUUGCCUAGACCAAACUAAUGACCAAACAGUAAUCAAUCUAUCACUGUUGAAGUCCUGGUUUUCUCAACCAAAUUUUAAGUCUUUCCCAGG,0.222
CCCCACACAAACCUGUCCCCUCGGUUGUGUUGAAGUCCCCUGGACAGUGGGCAGGGGUGGCAGAGGACACGAGCAGCCACUGCCCGUACCCCCUCUCCUCUCUGUAAGCC,0.323
AUUUGAGAGUUUGAGGAACUGAAACGUGUUGUGUUCAAGCAGCCUGGUGGCUAGUGCCUUCAUAUUAGAGCACCUUCUCUGAGGCUGAUUGGUGGGCAGGUAGGGAAGAC,0.99
ACAGAAAGACAGAUCACAGGUACAGGGAUGAGGACACCGGCUCUGACCAGGAGUUUGGGGAGCUUCAGGACAUUGCUGUGCUUUGGGGAUUCCCUCCACAUGCUGCACGC,2.25
UGCCUGGUGUUACACAGAGCAUGGCGUGGCUGGUCUGGAGCGCAUAGCAAUAAUACUGUGCUGUGGUGACCUCCGCCCUUGCCUUGUGCAUGUCACACCUCCUUUUCCUU,0.567
AGCGGAGCAGAUGCCUGUCCAAGCUGGUCAAGUCCUUCUAGUUCUUGGGCUGAAAUAAGUAACAGUCUGAGGCAGCCUGCGCCACAGUAAAGUGUGUUGGUUUGCUUGGA,0.263
CAGCUCCUCCGGUUAUUUCCUUGCCACUGCCUGCCCGAGCCACUUCAAGCCUUAGGAACUGGCAGACGGAACUGUUUCCAUCCACCAACCCCCAGGGUAUCAACCACUUU,1.4

# Block 2 — technique: protein binding microarray; form: double-stranded DNA, one strand shown; matrix: in vitro; tested at: not given; reference: not given; direction: higher = stronger binding
# Target: Histone acetyltransferase KAT6A, both winged helices, GST fusion (KAT6A, Homo sapiens, UniProt Q92794, residues 1-181)
# Setting: 8-mer, flanks averaged, mean of 2 arrays, mostly near background
# Residues (chain): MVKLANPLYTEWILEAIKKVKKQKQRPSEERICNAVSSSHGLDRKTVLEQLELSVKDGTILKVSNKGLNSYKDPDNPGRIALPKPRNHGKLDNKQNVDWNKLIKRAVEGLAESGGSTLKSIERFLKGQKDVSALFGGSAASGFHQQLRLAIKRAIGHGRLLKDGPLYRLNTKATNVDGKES
Sequence,E-score
GGGCTACC,-0.0793
ATGCTTGC,-0.00507
CCCCTCGA,-0.185
GGTATGTA,-0.0935
ACCGTCGA,0.0741
AGAGAAGG,-0.143
TAGCCCAA,-0.124
CGTGACTA,0.064
CCTTCGTA,-0.0319
CCGGAGCA,0.134
CGGCGATC,0.354
AAGGCGCT,0.247
GCTCGGCA,0.139
GGACGGCC,0.251
ATCAAAGG,-0.0653
GACACCAC,-0.00225
GACACAGC,0.014
CAGCACGG,0.141
CATATCGG,0.0419

# Block 3 — technique: RNA Bind-n-Seq; form: RNA; matrix: in vitro; tested at: not given; reference: input RNA pool; direction: higher = stronger binding
# Target: RING finger protein unkempt homolog, zinc fingers 1-6, GST-SBP tag (UNK, Homo sapiens, UniProt Q9C0B0, residues 30-357)
# Setting: RNA with constant flanks, human and mouse sites, ends assumed
# Constant ends, left off below: GGGAGUUCUACAGUCCGACGAUC … CAACAGAGGAUUGAGCAUCA
# Residues (chain): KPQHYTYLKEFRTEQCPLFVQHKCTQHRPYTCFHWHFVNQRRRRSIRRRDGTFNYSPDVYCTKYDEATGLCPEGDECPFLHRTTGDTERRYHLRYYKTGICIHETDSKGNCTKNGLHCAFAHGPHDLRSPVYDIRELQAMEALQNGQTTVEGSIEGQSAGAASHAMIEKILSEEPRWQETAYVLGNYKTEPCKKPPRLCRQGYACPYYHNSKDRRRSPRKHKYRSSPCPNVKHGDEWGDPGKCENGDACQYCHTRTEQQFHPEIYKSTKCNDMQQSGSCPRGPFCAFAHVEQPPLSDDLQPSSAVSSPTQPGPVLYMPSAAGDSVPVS
Sequence,bound/input enrichment
UUAUAUCGUAUGUAUCAGUAGUUACAUUUAUUAUUAAGUGCUGUCCUGAUACAGAGAUGAAAAAGUAGAACCUGGUGUGAUGGCACACACUUUGAUCCUAGCACUCUGGAGGAAGGGGCA,1.04 ratio
AGACAAUUAAGAGAUGCUCAGCAGGAUGCAAGAGAUAAAAUGGAGGAUAUCGAACGCCAAGUUAGAGAAUUGAAAACAAAAAUUUCAGCUAUGAAAGAAGAAAAAGAACAGCUUAGUGCU,11.6 ratio
AAAGAACAUUGGAAUCCGGCUAUUGUGGCGUUGGUGUACAAUGUGUUGAAGGCAUUUAUGGAAAUGAACAGCACCAUGUUUGACGAGCUGACAGCCACAUACAAGUCAGAUCGUCAGCGU,0.0909 ratio
GCGCGAGCAGAGCGCGGUUGACCUCCCUUUCUCUGCUCAGCUCCAGCGUCAUUUCGGCCUCUUAGUUCUUCUGAACCCUGCUCCUGAGCUAGGUAGGAAACAUGAGCGGCACCAACUUGG,0.0377 ratio
CGAGGGCUCCAGGCACUGGGCCAGACCUUCGGGGCCAACCCAGCCUUUGCCAGCUCCCUCCGAUACCUGGACCUGAGCAAGAACCCAGGGCUGCUUGCCACAGACGAGGCCAAUGCCCUC,0.23 ratio
AUCCCCAAUGUUCUGCGCCGCAUUCGGGAGUCUUUCUUUCGCGUGGUGCCGCAGUUUGUAGUGUUUUAUCUUAUCUACACAUGGGGGACUGAAGAGUUCGAGAGAUCCAAGAGGAAGAAU,0.218 ratio
AUUUUUGCAAGUUUGGCUUUAUAUGAUGUCAAGGAAAAGAAAAAGAUUUCAGAAAACUUUUAUUUUGACCUUAAUUCUGAGCAGAUGAAAGGGUUGUUACGUCCACAUGUACCACCUGCU,0.291 ratio
AAGAAAUACAAACAGGACAGUAAGAAGGAAGAGCAGGCCGCAUCUGCUGCUGCAGAAGACACAUGUGAUGUAGGCGUGAGCUCCGAUGAUGACAAGGGGGCCCAGGCAGCACGAGGAUCU,0.28 ratio

# Block 4 — technique: protein-binding microarray; form: double-stranded DNA, one strand shown; matrix: in vitro; tested at: 940 nM top; setting: 60-bp whole probe; added: salmon DNA 0.4 mg/ml; reference: random background probes; direction: higher = stronger binding; constant ends, left off below: GCCTAGCAC … GTCTTGATTCGCTTGACGCTGCTG
# Target: Interferon regulatory factor 5, full length, phosphomimetic (IRF5, Homo sapiens, UniProt Q13568-2, residues 1-514, S451D/S453D/S456D/S462D)
Sequence,fitted relative affinity [z-score]
GTCGGTTTCCTACTGCTGACGTGCTAG,1.76
GACGGTTTCGGTATCGGAACGTGCTAG,13.5
GATGGTTCCCTTTTCCTGACGTGCTAG,0.822
TTAGGTCTCGGTATCGGTGAGTGCTAG,5.85
GACGGACTGCTACTGCTGTCGTGCTAG,-0.3
TTAGGTTCGCTTTTCCTTTAGTGCTAG,0.621
GACGATATCGGCACTGGAGACGTGCTA,-0.25
GACGGTTTCCTATTGCTGACGTGCTAG,1.35
GACGGTTTCGACTATCCGGACGTGCTA,9.56
GACGATATCAAACTGGAGACGTGCTAG,-0.407
TCAGATCACCGATTTCCTACTGTGCTA,-0.0899
GTCGGTTTCGACTATCGGGACGTGCTA,9.62
TCATTTCTACTTCTCTTACTGTGCTAG,1.97
GACGGACTGGATCTCGGGACGTGCTAG,-0.632
TCATCATTGCCTATTTTACTGTGCTAG,0.998
TTAGGACTGCTGATCCTTTAGTGCTAG,-0.679
TTAGATATCAGAATCGATTAGTGCTAG,0.199
TTAGGTATTGACACTGGGTTAGTGCTA,0.129
GCAAGAGGAAAGGAACATCAGTGCTAG,-0.583

# Excerpt of the above (block 3):
Sequence,bound/input enrichment
AAGAAAUACAAACAGGACAGUAAGAAGGAAGAGCAGGCCGCAUCUGCUGCUGCAGAAGACACAUGUGAUGUAGGCGUGAGCUCCGAUGAUGACAAGGGGGCCCAGGCAGCACGAGGAUCU,0.28 ratio
AGACAAUUAAGAGAUGCUCAGCAGGAUGCAAGAGAUAAAAUGGAGGAUAUCGAACGCCAAGUUAGAGAAUUGAAAACAAAAAUUUCAGCUAUGAAAGAAGAAAAAGAACAGCUUAGUGCU,11.6 ratio
CGAGGGCUCCAGGCACUGGGCCAGACCUUCGGGGCCAACCCAGCCUUUGCCAGCUCCCUCCGAUACCUGGACCUGAGCAAGAACCCAGGGCUGCUUGCCACAGACGAGGCCAAUGCCCUC,0.23 ratio
